Results from different studies.
Every numbered part comes from another study and shows a few of its results, in no order. Substitutions count along the parent as printed.

Study 1
Target: Histone acetyltransferase KAT6A, both winged helices, GST fusion (KAT6A, Homo sapiens, UniProt Q92794, residues 1-181)
Technique: protein binding microarray
Molecule type: double-stranded DNA, one strand shown
Matrix: in vitro
Tested at: not given
Notes: 8-mer, flanks averaged, mean of 2 arrays, mostly near background
Relative to: not given
Reading: higher = stronger binding
Residues (chain): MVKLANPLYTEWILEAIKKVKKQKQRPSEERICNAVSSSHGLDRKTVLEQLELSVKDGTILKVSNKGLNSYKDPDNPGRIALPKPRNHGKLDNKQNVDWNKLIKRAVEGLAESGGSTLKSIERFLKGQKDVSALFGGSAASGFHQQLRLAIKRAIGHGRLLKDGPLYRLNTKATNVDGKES
| Strand | E-score |
| --- | --- |
| AAGCCTAA | -0.175 |
| CGGCTTAG | 0.21 |
| GGCCACCA | -0.0698 |
| AGCTCCCC | -0.153 |
| AACGTATT | 0.0434 |
| TGCTGCAA | -0.157 |
| AATGTTAT | -0.136 |
| ATCGGTGG | -0.0821 |
| GACCAGGC | -0.138 |
| GAGAGTAC | -0.0345 |
| TACGTCTA | -0.11 |
| ATCGTCAC | -0.112 |
| AGGGATGC | -0.177 |
| ATAGGCCA | -0.0369 |
| ACGATGAA | -0.0254 |
| GCCGTAAA | 0.311 |
| CCCATTCC | -0.298 |

Study 2
Target: CCND2, cyclin fold, Cln2 fusion (human)
Technique: yeast growth competition, sequencing
Matrix: yeast
Notes: weak parent motif
Relative to: not given
Reading: higher = stronger binding
Starting sequence: KIF20B docking peptide (human); KRAKRKLYTSEIS; partner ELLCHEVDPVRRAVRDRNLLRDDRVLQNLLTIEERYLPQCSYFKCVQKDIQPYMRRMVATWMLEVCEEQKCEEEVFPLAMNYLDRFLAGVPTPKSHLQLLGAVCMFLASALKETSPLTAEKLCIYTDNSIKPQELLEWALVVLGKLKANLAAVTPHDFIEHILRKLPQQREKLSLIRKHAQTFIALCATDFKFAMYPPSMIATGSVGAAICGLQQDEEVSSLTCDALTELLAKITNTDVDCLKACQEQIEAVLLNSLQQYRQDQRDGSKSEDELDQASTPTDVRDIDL
| Variant | normalised enrichment score |
| --- | --- |
| KRAKRALYTSEIS [K6A] | 0.214 |
| KRAKRKLYASEIS [T9A] | -0.0953 |
| ARAKRKLYTSEIS [K1A] | 0.467 |
| KRAKRKLYTSEAS [I12A] | 0.0915 |
| KRAARKLYTSEIS [K4A] | 0.113 |
| KAAKRKLYTSEIS [R2A] | -0.228 |

Study 3
Target: TAR DNA-binding protein 43, full length, His tag (TARDBP, Homo sapiens, UniProt Q13148, residues 1-414)
Technique: RNA Bind-n-Seq
Molecule type: RNA
Matrix: in vitro
Tested at: 20 nM
Notes: 6-mer, flanks averaged, single round
With: 150 mM LiCl
Relative to: input library
Reading: higher = stronger binding
| Strand | 6-mer enrichment (R) |
| --- | --- |
| CUGUUG | 1.06 |
| CUUAUG | 0.969 |
| CAGGCA | 0.895 |
| UGGACU | 1.01 |
| UUGGGG | 1.35 |
| CUUUAA | 0.96 |
| GCGUAU | 1.06 |
| GCAAAA | 0.839 |
| GUAGUG | 1.34 |
| UUAUCG | 0.93 |
| GACUCG | 0.856 |
| CGCACU | 0.859 |
| AUUAAC | 0.884 |
| UGCUCC | 0.983 |
| UAAAUU | 0.992 |
| UGAUUG | 1.08 |
| AAACCA | 0.819 |
| GACUGU | 1.11 |
| ACAGCC | 0.868 |
| ACUCGC | 0.815 |
| CGCGGA | 0.984 |
| UAGCCC | 1.02 |
| ACGGGG | 1.11 |
| UACUUG | 0.927 |
| UCAAAC | 0.811 |

Study 4
Target: BATF2, bZIP domain (human)
Technique: DHFR protein complementation
Matrix: yeast
Notes: single substitutions, most at no-binding floor
Relative to: wild-type JUN-FOS pair
Reading: higher = stronger binding
Starting sequence: JUN, bZIP domain (human); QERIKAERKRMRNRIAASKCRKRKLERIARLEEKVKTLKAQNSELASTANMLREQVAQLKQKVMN; partner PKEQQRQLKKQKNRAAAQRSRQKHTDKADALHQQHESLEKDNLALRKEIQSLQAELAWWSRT
| Variant | binding fitness [natural log] |
| --- | --- |
| K39M | -0.455 |
| K39R | -0.161 |
| Q41V | -0.331 |
| T48N | -0.678 |
| L52Y | -0.994 |
| E44D | -0.498 |
| L31K | -1.19 |
| M51G | -0.383 |
| Q55I | -0.92 |
| Q55V | -0.834 |
| A29E | -0.442 |
| V35S | -1.1 |
| T37C | -0.187 |
| I28W | -0.621 |
| A57E | -0.188 |

Study 5
Target: ABI1, truncated, D143A, DHFR fusion (Arabidopsis thaliana)
Technique: DHFR PCA, deep sequencing
Matrix: yeast
Notes: methotrexate growth selection, single substitutions
With: (+)-ABA 17 µM
Relative to: wild-type fitted maximum
Reading: higher = stronger binding
Starting sequence: PYL1, truncated, DHFR fusion (Arabidopsis thaliana); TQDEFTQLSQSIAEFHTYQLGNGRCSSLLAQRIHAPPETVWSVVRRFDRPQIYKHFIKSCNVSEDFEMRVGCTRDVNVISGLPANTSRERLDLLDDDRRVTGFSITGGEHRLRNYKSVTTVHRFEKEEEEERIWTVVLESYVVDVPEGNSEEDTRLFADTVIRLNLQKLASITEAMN
| Variant | relative binding score [%] |
| --- | --- |
| P36R | 73.2 |
| D153L | 0.57 |
| T119C | 82.2 |
| E38M | 18.1 |
| E128Q | 89.1 |
| D97V | 88 |
| N85W | 78.3 |
| Q167F | 51.4 |
| R99K | 100 |
| E4L | 78.9 |
| R88K | 85.4 |
| E4N | 72.1 |
| R74F | 8.88 |
| A175K | 95.8 |
| T1I | 86 |
| L169Q | -2.68 |
| E129F | 76.8 |
| R88G | 1.7 |
| P37A | 74.7 |
| K168A | 75 |
| Q2F | 81.2 |

Study 6
Target: Prothrombin, mature alpha-thrombin (F2, Homo sapiens, UniProt P00734)
Technique: aptamer microarray, sandwich
Molecule type: DNA with 2'F-ANA
Matrix: in vitro
Tested at: 200 nM
Notes: whole 15-mer aptamer, many near background
With: Cy3 exosite-II aptamer, 400 nM
Reading: higher = stronger binding
Strand: GGTTGGTGTGGTTGG
| Modification | mean fluorescence intensity [a.u.] |
| --- | --- |
| 2'F-ANA at 2 3 6 8 10 11 13 14 15 | 202 |
| 2'F-ANA at 6 8 11 13 | 391 |
| 2'F-ANA at 1 4 5 7 9 11 15 | 52.2 |
| 2'F-ANA at 3 7 8 9 10 13 | 541 |
| 2'F-ANA at 2 7 11 14 15 | 176 |
| 2'F-ANA at 2 6 7 9 10 12 15 | 148 |
| 2'F-ANA at 4 6 7 8 9 10 12 13 15 | 113 |
| 2'F-ANA at 3 5 6 7 8 10 11 12 13 15 | 76.8 |
| 2'F-ANA at 3 4 7 8 10 12 13 14 15 | 207 |
| 2'F-ANA at 1 2 3 6 9 10 14 | 52.9 |
| 2'F-ANA at 5 6 7 10 11 13 14 15 | 45.9 |
| 2'F-ANA at 2 3 4 5 6 8 9 10 12 13 14 15 | 62.6 |
| 2'F-ANA at 2 | 450 |
| 2'F-ANA at 3 5 6 8 9 10 11 | 54.5 |
| 2'F-ANA at 1 2 3 8 10 11 15 | 69.2 |
| 2'F-ANA at 1 2 3 5 6 7 10 12 | 49.9 |
| 2'F-ANA at 1 5 6 7 8 9 10 11 12 | 55.4 |
| 2'F-ANA at 1 2 4 6 8 11 12 14 | 207 |
| 2'F-ANA at 1 3 4 8 14 | 82.5 |
| 2'F-ANA at 1 5 7 12 13 14 15 | 45.3 |

Single results of other studies
| Molecule | target | assay | system | conditions | how to read | endpoint | value |
| --- | --- | --- | --- | --- | --- | --- | --- |
| PhoQ, residues 284 288 289 292 302 303 SLANIV | PhoP, residues 12 14 15 18 19 HEGLL (Escherichia coli, UniProt P23836) | Sort-seq, refers to: YFP reporter | E. coli | PhoQ-PhoP variant library, with: 10 µM Mg2+ | relative to: high Mg2+ state, higher = stronger signaling | fold induction | 10.6 |

A few entries again (study 3):
| Strand | 6-mer enrichment (R) |
| --- | --- |
| GCGUAU | 1.06 |
| GCAAAA | 0.839 |
| GUAGUG | 1.34 |
| UUAUCG | 0.93 |
| GACUCG | 0.856 |
| CGCACU | 0.859 |
| AUUAAC | 0.884 |
| UGCUCC | 0.983 |
| UAAAUU | 0.992 |
| UGAUUG | 1.08 |
| AAACCA | 0.819 |
| GACUGU | 1.11 |
| ACAGCC | 0.868 |
| ACUCGC | 0.815 |
